Published values of several laboratories.
Each line is one published result; not all experiments were run side by side.
Organism: Escherichia coli

`CCn1c(-c2ccc(F)cc2)c(-c2ccc(F)cc2)n(Cc2ccccc2)c1=[Se]` gave an MIC of > 40 µM (broth microdilution; carbapenem-resistant BAA-2140; 24 h).
`CC(C)C[C@@H](NC(=O)[C@@H](CCCNC(=N)N)NC(=O)[C@H](N)CCCNC(=N)N)C(=O)N[C@H](CC(C)C)C(=O)N[C@H](CCCNC(=N)N)C(=O)N[C@H](CCCCN)C(=O)N[C@H](CC(C)C)C(=O)N[C@H](CCCCN)C(=O)NCC(=O)N[C@H](CCCCN)C(=O)N[C@H](CCCCN)C(=O)N[C@H](CC(C)C)C(=O)N[C@H](Cc1ccc(O)cc1)C(=O)N[C@H](CC(C)C)C(=O)N[C@H](Cc1ccc(O)cc1)C(=O)N[C@H](Cc1ccccc1)C(=O)N[C@H](CCCCN)C(=O)N[C@H](CC(C)C)C(=O)N[C@H](CCC(N)=O)C(=O)N[C@H](CC(C)C)C(=O)N[C@H](CC(C)C)C(=O)N[C@H](CCCCN)C(=O)N[C@H](CCCCN)C(N)=O` has an MIC of 16 µM (KCTC 1682, Mueller-Hinton broth; with: 150 mM NaCl).
With `CC[C@H](C)[C@H](NC(=O)[C@@H](CCCNC(=N)N)NC(=O)[C@H](CCCNC(=N)N)NC(=O)[C@H](Cc1c[nH]cn1)NC(=O)[C@H](Cc1c[nH]c2ccccc12)NC(=O)[C@H](CCCNC(=N)N)NC(=O)[C@@H]1CCCN1C(=O)[C@H](CCCNC(=N)N)NC(=O)[C@@H]1CCCN1C(=O)[C@H](CC(C)C)NC(=O)[C@H](Cc1ccc(O)cc1)NC(=O)[C@@H]1CCCN1C(=O)[C@@H]1CCCN1C(=O)[C@H](CCCCN)NC(=O)[C@H](CC(=O)O)NC(=O)[C@@H](N)C(C)C)C(=O)N[C@@H](Cc1ccc(O)cc1)C(=O)N[C@@H](CC(N)=O)C(=O)N[C@H](CCCNC(=N)N)C(N)=O` the MIC was 8 mg/L (broth microdilution; MC4100; 18 h, 37 °C, 25% MHB2).
`CC1(C)[C@H](NC(=O)/C(=N\OCc2c(Cl)cccc2Cl)c2csc(N)n2)C(=O)N1OS(=O)(=O)O` has an MIC of 8 mg/L (agar dilution; CDC 1001728, NDM-1).
`CSCC[C@H](NC=O)C(=O)N[C@@H](CCCNC(=N)N)C(=O)N[C@H](C(=O)NCC(=O)N[C@@H](CC(N)=O)C(=O)N[C@@H](C)C(=O)N[C@@H](CC(N)=O)C(=O)NCC(=O)N1CCN(c2cc3c(cc2F)c(=O)c(C(=O)O)cn3C2CC2)CC1)[C@@H](C)O` has an MIC of 5 µM (broth dilution; K12 MG1655 wild type).
For `CC[C@H](C)[C@H](NC(=O)[C@@H](NC(=O)[C@H](CCCCN)NC(=O)[C@H](CCCCN)NC(=O)[C@@H](NC(=O)[C@H](Cc1c[nH]c2ccccc12)NC(=O)[C@H](CCCCN)NC(=O)[C@@H](NC(=O)[C@H](CC(C)C)NC(=O)[C@H](CCCCN)NC(=O)[C@H](CCCCN)NC(=O)[C@@H](N)C(C)C)[C@@H](C)CC)[C@@H](C)CC)C(C)C)C(N)=O`, the MIC was 64 µM (24 h, 37 °C, Mueller-Hinton broth, MgCl2 1 mM).
With `CC[C@H](C)[C@H](N)C(=O)NCC(=O)N[C@@H](CC(C)C)C(=O)N[C@H](CCC(=O)O)C(=O)N[C@H](C(=O)N[C@H]1CCCCNC(=O)[C@H](CC(N)=O)NC(=O)[C@@H](CC(=O)O)NC(=O)[C@H](Cc2c[nH]cn2)NC(=O)[C@@H](Cc2ccccc2)NC(=O)[C@H]([C@@H](C)CC)NC(=O)[C@@H](CCCN)NC1=O)[C@@H](C)CC` the MIC was > 64 mg/L (ATCC 25922; 18 h, 37 °C, 0.3 mM ZnSO4 LB).
The MIC of `CC[C@H](C)[C@H](NC(=O)[C@@H](CCCNC(=N)N)NC(=O)[C@H](CCCNC(=N)N)NC(=O)[C@@H]1CCCN1C(=O)[C@@H]1CCCN1C(=O)[C@H](CCCNC(=N)N)NC(=O)[C@@H]1CCCN1C(=O)[C@H](CCCNC(=N)N)NC(=O)[C@@H]1CCCN1C(=O)[C@H](CC(C)C)NC(=O)[C@H](Cc1ccc(O)cc1)NC(=O)[C@@H]1CCCN1C(=O)[C@H](Cc1ccccc1)NC(=O)[C@H](CCCCN)NC(=O)[C@H](CC(=O)O)NC(=O)[C@@H](N)C(C)C)C(=O)N[C@@H](Cc1ccc(O)cc1)C(=O)N[C@@H](CC(N)=O)C(=O)N[C@H](CCCNC(=N)N)C(N)=O` is reported as 16 mg/L (broth microdilution; ATCC 25922; 18 h, 37 °C, 25% MHB2).
`CC[C@H](C)[C@H](NC(=O)[C@H](CCCNC(=N)N)NC(=O)[C@@H]1CCCN1C(=O)[C@H](CCCNC(=N)N)NC(=O)[C@H](Cc1ccccc1)NC(=O)[C@H](Cc1c[nH]cn1)NC(=O)[C@H](CCCNC(=N)N)NC(=O)[C@H](CC(C)C)NC(=O)[C@H](CCCCN)NC(=O)CNC(=O)[C@H](CC(C)C)NC(=O)[C@H](Cc1ccccc1)NC(=O)[C@H](CCCNC(=N)N)NC(=O)CNC(=O)[C@H](Cc1ccccc1)NC(=O)[C@H](CCCNC(=N)N)NC(=O)CNC(=O)[C@H](CCCNC(=N)N)NC(=O)[C@H](CCC(N)=O)NC(=O)[C@@H](NC(=O)[C@@H](N)CC(C)C)[C@@H](C)CC)C(=O)N[C@@H](CCCCN)C(=O)N[C@@H](Cc1ccccc1)C(=O)N[C@@H](CCCCN)C(=O)NCC(=O)N[C@@H](CCCCN)C(=O)N[C@@H](C)C(=O)NCC(=O)N[C@@H](Cc1c[nH]c2ccccc12)C(=O)N[C@H](C(=O)N[C@H](C(=O)NCC(=O)O)C(C)C)[C@@H](C)O` has an MIC of 0.64 log10 µg/mL (broth microdilution; K88).
With `CCCCCCCC(=O)N[C@@H](CCN)C(=O)N[C@H](C(=O)N[C@@H](CCN)C(=O)N[C@H]1CCNC(=O)[C@H]([C@@H](C)O)NC(=O)[C@H](CCN)NC(=O)[C@H](CCN)NC(=O)[C@H](CCC(C)C)NC(=O)[C@@H](Cc2ccccc2)NC(=O)[C@H](CCN)NC1=O)[C@@H](C)O` the MIC was < 0.125 mg/L (broth microdilution; ATCC 25922, colistin-susceptible).
`CN[C@@H]1[C@H](O)[C@H](NC)[C@H]2O[C@]3(O)[C@H](O[C@@H]2[C@H]1O)O[C@H](C)C[C@H]3NC(=O)Cc1ccc(F)cn1` gave an MIC of 100 mg/L (microbial growth, broth dilution; K12).
`CC[C@H](C)[C@H](NC(=O)[C@@H](CCCNC(=N)N)NC(=O)[C@H](CCCNC(=N)N)NC(=O)[C@@H]1CCCN1C(=O)[C@@H]1CCCN1C(=O)[C@H](CCCNC(=N)N)NC(=O)[C@@H]1CCCN1C(=O)[C@H](CCCNC(=N)N)NC(=O)[C@@H]1CCCN1C(=O)[C@H](CC(C)C)NC(=O)[C@H](Cc1ccc(O)cc1)NC(=O)[C@H](Cc1ccc(O)cc1)NC(=O)[C@@H]1CCCN1C(=O)[C@H](CCCCN)NC(=O)[C@H](CC(=O)O)NC(=O)[C@@H](N)C(C)C)C(=O)N[C@@H](Cc1ccc(O)cc1)C(=O)N[C@@H](CC(N)=O)C(=O)N[C@H](CCCNC(=N)N)C(N)=O` has an MIC of 16 mg/L (broth microdilution; MC4100; 18 h, 37 °C, 25% MHB2).
The MIC of `CC(C)C[C@H](NC(=O)[C@H](CCCCN)NC(=O)[C@H](C)NC(=O)[C@H](CC(C)C)NC(=O)[C@H](CCCCN)NC(=O)[C@H](CCC(N)=O)NC(=O)[C@H](CCCCN)NC(=O)[C@H](CC(C)C)NC(=O)[C@H](CCCCN)NC(=O)[C@H](CCC(N)=O)NC(=O)[C@H](CC(C)C)NC(=O)[C@H](CCCCN)NC(=O)[C@H](C)NC(=O)[C@H](CCCCN)NC(=O)[C@H](CC(C)C)NC(=O)[C@H](CCCCN)NC(=O)[C@H](C)NC(=O)[C@H](CC(C)C)NC(=O)[C@H](CCCCN)NC(=O)[C@H](CCC(N)=O)NC(=O)[C@@H](N)CCCCN)C(N)=O` is reported as 3 µM (K12; 24 h).
The MIC of `CC[C@H](C)[C@H](NC(=O)[C@@H](NC(=O)[C@H](CCCCN)NC(=O)[C@H](CCCCN)NC(=O)[C@@H](NC(=O)[C@H](Cc1c[nH]c2ccccc12)NC(=O)[C@H](CCCCN)NC(=O)[C@H](Cc1c[nH]c2ccccc12)NC(=O)[C@H](CC(C)C)NC(=O)[C@H](CCCCN)NC(=O)[C@H](CCCCN)NC(=O)[C@@H](N)C(C)C)[C@@H](C)CC)C(C)C)C(N)=O` is reported as 32 µM (24 h, 37 °C, Mueller-Hinton broth, NaCl 150 mM).
`CO[C@@H](C(N)=O)[C@H](NC(=O)c1ccc(NC(=O)[C@@H](N)Cc2ccccc2)cc1)C(=O)Nc1ccc(C(=O)Nc2ccc(C(=O)Nc3ccc(C(=O)O)c(O)c3OC(C)C)c(O)c2OC(C)C)cc1` gave an MIC of > 2 mg/L (MerR family clone; 16 h, 37 °C).
`CC[C@H](C)[C@H](NC(=O)[C@@H](CCCNC(=N)N)NC(=O)[C@H](CCCNC(=N)N)NC(=O)[C@H](CCCCN)NC(=O)[C@H](Cc1c[nH]c2ccccc12)NC(=O)[C@H](CCCNC(=N)N)NC(=O)[C@@H]1CCCN1C(=O)[C@H](CCCNC(=N)N)NC(=O)[C@@H]1CCCN1C(=O)[C@H](CC(C)C)NC(=O)[C@H](Cc1ccc(O)cc1)NC(=O)[C@@H]1CCCN1C(=O)[C@@H]1CCCN1C(=O)[C@H](CCCCN)NC(=O)[C@H](CC(=O)O)NC(=O)[C@@H](N)C(C)C)C(=O)N[C@@H](Cc1ccc(O)cc1)C(=O)N[C@@H](CC(N)=O)C(=O)N[C@H](CCCNC(=N)N)C(N)=O` gave an MIC of 16 mg/L (broth microdilution; ATCC 25922; 18 h, 37 °C, 25% MHB2).

Repeated from above:
`CC[C@H](C)[C@H](NC(=O)[C@@H](CCCNC(=N)N)NC(=O)[C@H](CCCNC(=N)N)NC(=O)[C@@H]1CCCN1C(=O)[C@@H]1CCCN1C(=O)[C@H](CCCNC(=N)N)NC(=O)[C@@H]1CCCN1C(=O)[C@H](CCCNC(=N)N)NC(=O)[C@@H]1CCCN1C(=O)[C@H](CC(C)C)NC(=O)[C@H](Cc1ccc(O)cc1)NC(=O)[C@H](Cc1ccc(O)cc1)NC(=O)[C@@H]1CCCN1C(=O)[C@H](CCCCN)NC(=O)[C@H](CC(=O)O)NC(=O)[C@@H](N)C(C)C)C(=O)N[C@@H](Cc1ccc(O)cc1)C(=O)N[C@@H](CC(N)=O)C(=O)N[C@H](CCCNC(=N)N)C(N)=O` has an MIC of 16 mg/L (broth microdilution; MC4100; 18 h, 37 °C, 25% MHB2).
The MIC of `CC(C)C[C@H](NC(=O)[C@H](CCCCN)NC(=O)[C@H](C)NC(=O)[C@H](CC(C)C)NC(=O)[C@H](CCCCN)NC(=O)[C@H](CCC(N)=O)NC(=O)[C@H](CCCCN)NC(=O)[C@H](CC(C)C)NC(=O)[C@H](CCCCN)NC(=O)[C@H](CCC(N)=O)NC(=O)[C@H](CC(C)C)NC(=O)[C@H](CCCCN)NC(=O)[C@H](C)NC(=O)[C@H](CCCCN)NC(=O)[C@H](CC(C)C)NC(=O)[C@H](CCCCN)NC(=O)[C@H](C)NC(=O)[C@H](CC(C)C)NC(=O)[C@H](CCCCN)NC(=O)[C@H](CCC(N)=O)NC(=O)[C@@H](N)CCCCN)C(N)=O` is reported as 3 µM (K12; 24 h).
